Measurements collected from several papers.
Lines come from different studies, so protocols differ. Several values in a cell are separate wells, animals, samples, runs or records.
Target: Sodium-dependent noradrenaline transporter (SLC6A2, Homo sapiens, UniProt P23975)

Compound | assay | system | conditions | scale | quantity | result
O=C(O)c1ccc(-c2nc(-c3ccccc3Cl)c3sccn23)cc1 | radioligand binding, safety screen panel | – | 10 µM | relative to: control | specific binding | 112% and 114%
CCOC(=O)[C@](CC)(CCCSCCOCCOCCNC(=O)c1ccc(-c2c3ccc(=N)c(S(=O)(=O)O)c-3oc3c(S(=O)(=O)O)c(N)ccc23)c(C(=O)O)c1)NC(=O)c1ccc(C2CC2)c(Cc2ccc(F)cc2)n1 | ligand displacement, radioligand | – | 10 µM | – | inhibition | 9%
COc1ccc(F)cc1S(=O)(=O)Nc1cnc2c(c1)C(=O)NCCO2 | ligand displacement, radioligand | – | 10 µM | – | inhibition | 4%
CCO[C@H]1[C@H](O)[C@@H](N)[C@@H](O[C@H]2[C@H](O[C@@H]3O[C@H](CO)[C@@H](O[C@H]4O[C@@H](CN)[C@@H](O)[C@H](O)[C@H]4N)[C@H]3O)[C@@H](O)[C@H](N)C[C@@H]2N)O[C@@H]1CO | radioligand binding | – | 10 µM, 1% DMSO | – | specific binding | 6%
CCc1nnc(-c2c(OC)cc(-c3cnc4cc(-c5cnn(C)c5)ccn34)cc2OC)o1 | antagonist radioligand, radioligand binding | – | 10 µM, SafetyScreen44 norepinephrine transporter mean | lower = stronger displacement | remaining binding | 107%
Cc1cc(Nc2nc(C[C@@]3(C(=O)O)CCN(Cc4cccc(Cl)c4F)[C@H](C)C3)cc(C)c2F)[nH]n1 | inhibitor | – | 10 µM | – | inhibition | 5.33%
C/C(=N\OCCCN1CCCCC1)c1ccc(C(F)(F)F)cc1 | uptake, inhibitor | – | 10 µM | – | inhibition | -11.9%
C[C@@H]1COCCN1c1nc(NCc2cccnc2C(F)(F)F)c2cccnc2n1 | binding | – | CEREP panel | – | IC50 | 40.1 µM
CCN(CC)CCOc1ccc(-c2nnn(Cc3ccc(OC)cc3)c2N)cc1 | radioligand binding | HEK293 | 10 µM, safety profiling | – | inhibition | 4.46%
CS(C)(=O)=Nc1ccc(-c2ccc(-c3nc4cc(O[C@@H]5CO[C@H]6[C@@H]5OC[C@H]6O)[nH]c4cc3F)cc2)cc1 | ligand displacement, radioligand | – | 10 µM | – | inhibition | 43%
N[C@H](C(=O)N1CCCC1)C1CCN(c2nccc3c(-c4ncc(Cl)cc4Cl)cccc23)CC1 | ligand displacement | – | 10 µM | – | inhibition | 22%
CN[C@@H]1[C@H](O)[C@H](NC)[C@H]2O[C@]3(O)[C@H](O[C@@H]2[C@H]1O)O[C@H](C)C[C@H]3NC(=O)Cc1ccc(Cl)cn1 | ligand displacement, radioligand | – | 10 µM | – | inhibition | 3%
Cc1sc2c(c1C)C(c1ccc(Cl)cc1)=NC(CC(=O)OC(C)(C)C)c1nnc(C)n1-2 (stereo not shown) | ligand displacement, radioligand | – | 1 µM | – | remaining binding | 110%
